Measured values from different studies.
Every numbered part comes from another study and shows a few of its results, in no order.

Study 1 — technique: protein-binding microarray; form: double-stranded DNA, one strand shown; sample: in vitro; tested at: 0.8 µM; notes: whole 60-bp probe, no competitor; direction: higher = stronger binding
Target: Centromere-binding protein 1, full length, N-terminal tag (CBF1, Saccharomyces cerevisiae, UniProt P17106, residues 1-351)
Chain of UniProt P17106 (whole entry, looked up): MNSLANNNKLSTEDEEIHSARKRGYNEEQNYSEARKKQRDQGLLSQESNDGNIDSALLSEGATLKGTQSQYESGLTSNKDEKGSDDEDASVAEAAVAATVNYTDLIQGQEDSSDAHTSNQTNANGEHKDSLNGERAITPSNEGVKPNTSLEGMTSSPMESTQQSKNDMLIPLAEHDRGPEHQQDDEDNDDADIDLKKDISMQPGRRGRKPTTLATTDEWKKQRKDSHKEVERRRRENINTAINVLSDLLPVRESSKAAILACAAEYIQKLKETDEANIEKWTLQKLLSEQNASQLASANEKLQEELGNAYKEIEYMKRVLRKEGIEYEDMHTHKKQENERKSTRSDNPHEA
`GAAATCAATACAAGGTGACTAAGATTGTTATGTTAGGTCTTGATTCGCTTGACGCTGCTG` gave a fluorescence intensity of 562 a.u.
For `CTAAAGCAAGTACACGTGCGCAAGTTGTACCAGTTCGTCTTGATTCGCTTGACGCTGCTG`, the fluorescence intensity was 6130 a.u.
`TGTACGAAGCTATACCAGGTGAGTATAGTAGTTAGGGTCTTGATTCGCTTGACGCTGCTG` has a fluorescence intensity of 574 a.u.
For `GAATTCATGTGCTTGCATGTGATGTCCTGCAGATAGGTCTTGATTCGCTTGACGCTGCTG`, the fluorescence intensity was 1610 a.u.
`CTACATCCTCATCATCATCACTGTCTTCTTCATTTCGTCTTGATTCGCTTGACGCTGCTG` gave a fluorescence intensity of 585 a.u.
`TGTACGAAGCTATATGATGGCGTTATAGTAGTTAGGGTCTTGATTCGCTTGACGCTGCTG` gave a fluorescence intensity of 510 a.u.
With `CCTAACTACTATAAAAACGTGGGATAGCTTCGTACAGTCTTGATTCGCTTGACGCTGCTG` the fluorescence intensity was 530 a.u.

Study 2 — technique: universal PBM; form: double-stranded DNA, one strand shown; sample: in vitro; tested at: 600 nM; direction: higher = stronger binding
Target: Sal-like protein 4, full length isoform A (SALL4, Homo sapiens, UniProt Q9UJQ4, residues 1-1053)
Chain of UniProt Q9UJQ4 (whole entry, looked up): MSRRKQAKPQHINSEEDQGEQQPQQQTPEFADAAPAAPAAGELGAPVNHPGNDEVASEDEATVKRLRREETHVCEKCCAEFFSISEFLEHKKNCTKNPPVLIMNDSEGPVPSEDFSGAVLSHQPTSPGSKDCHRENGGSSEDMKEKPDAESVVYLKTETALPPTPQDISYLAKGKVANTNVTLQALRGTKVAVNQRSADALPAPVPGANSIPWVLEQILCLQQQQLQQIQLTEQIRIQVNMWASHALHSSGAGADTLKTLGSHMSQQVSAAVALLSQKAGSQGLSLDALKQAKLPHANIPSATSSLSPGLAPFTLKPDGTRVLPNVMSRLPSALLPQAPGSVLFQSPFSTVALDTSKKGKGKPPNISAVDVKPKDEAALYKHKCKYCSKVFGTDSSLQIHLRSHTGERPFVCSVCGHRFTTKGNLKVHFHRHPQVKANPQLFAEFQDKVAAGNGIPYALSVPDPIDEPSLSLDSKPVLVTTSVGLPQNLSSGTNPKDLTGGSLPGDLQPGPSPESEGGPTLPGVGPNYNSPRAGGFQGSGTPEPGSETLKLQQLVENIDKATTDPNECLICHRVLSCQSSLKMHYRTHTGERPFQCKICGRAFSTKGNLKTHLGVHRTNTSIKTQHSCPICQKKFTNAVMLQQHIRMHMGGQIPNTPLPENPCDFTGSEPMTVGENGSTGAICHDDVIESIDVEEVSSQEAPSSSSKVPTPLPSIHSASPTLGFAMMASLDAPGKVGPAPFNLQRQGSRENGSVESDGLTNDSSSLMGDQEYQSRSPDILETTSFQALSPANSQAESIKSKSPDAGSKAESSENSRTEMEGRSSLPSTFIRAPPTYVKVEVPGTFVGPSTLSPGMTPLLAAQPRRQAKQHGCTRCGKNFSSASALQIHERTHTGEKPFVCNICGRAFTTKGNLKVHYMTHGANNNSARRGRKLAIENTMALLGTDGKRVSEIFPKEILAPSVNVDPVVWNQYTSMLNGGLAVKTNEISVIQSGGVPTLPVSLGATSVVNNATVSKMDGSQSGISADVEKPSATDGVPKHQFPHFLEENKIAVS
Notes: 8-mer, flanks averaged, mean of replicates
`CTGCCTGC` has an E-score of -0.225.
With `CTCGCAGA` the E-score was -0.204.
The E-score of `AGTGAGCC` is reported as -0.18.
For `CAATTTCC`, the E-score was 0.0315.

Mixed results
KAT6A winged helix 2, GST fusion: Histone acetyltransferase KAT6A, winged helix 2, GST fusion (KAT6A, Homo sapiens, UniProt Q92794, residues 85-181)
KAT6A winged helix 1, GST fusion: Histone acetyltransferase KAT6A, winged helix 1, GST fusion (KAT6A, Homo sapiens, UniProt Q92794, residues 1-85)
`GGTTTGTA` has an E-score of -0.0275 (KAT6A winged helix 2, GST fusion; protein binding microarray; double-stranded DNA, one strand shown, in vitro; not given, 8-mer, flanks averaged, mean of 2 arrays, mostly near background; relative to: not given, higher = stronger binding).
The fold induction of `PhoQ, residues 284 288 289 292 302 303 ALASRC` is reported as 11.5 (PhoP, residues 12 14 15 18 19 VQALL (Escherichia coli, UniProt P23836); Sort-seq, refers to: YFP reporter; E. coli; PhoQ-PhoP variant library, together with: 10 µM Mg2+; relative to: high Mg2+ state, higher = stronger signaling).
`AGGGATCG` has an E-score of -0.0482 (KAT6A winged helix 1, GST fusion; protein binding microarray; double-stranded DNA, one strand shown, in vitro; not given, 8-mer, flanks averaged, mean of 2 arrays, mostly near background; relative to: not given, higher = stronger binding).
`CTTCTGCC` has an E-score of -0.0689 (KAT6A winged helix 1, GST fusion; protein binding microarray; double-stranded DNA, one strand shown, in vitro; not given, 8-mer, flanks averaged, mean of 2 arrays, mostly near background; relative to: not given, higher = stronger binding).
With `ACCATACA` the E-score was -0.122 (KAT6A winged helix 2, GST fusion; protein binding microarray; double-stranded DNA, one strand shown, in vitro; not given, 8-mer, flanks averaged, mean of 2 arrays, mostly near background; relative to: not given, higher = stronger binding).

Some of these lines once more (study 2):
`CTGCCTGC` has an E-score of -0.225.
With `CTCGCAGA` the E-score was -0.204.
